Experimental data from different studies.
A part holds a random share of what one study measured.

Series 1 — method: RNA Bind-n-Seq; form: RNA; medium: in vitro; concentration: 365 nM; relative to: no-protein control; direction: higher = stronger binding
Target: RNA binding protein fox-1 homolog 2, RRM domain, GST-SBP tag (RBFOX2, Homo sapiens, UniProt O43251-10, residues 100-194)
Setting: natural RNA segment, single round, ends assumed
Shared flanks, not repeated: GGGAGUUCUACAGUCCGACGAUC … UGGAAUUCUCGGGUGCCAA
Target sequence (chain): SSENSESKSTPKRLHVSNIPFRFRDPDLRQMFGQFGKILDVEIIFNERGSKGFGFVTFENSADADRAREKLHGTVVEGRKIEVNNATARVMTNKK
`UGCCCCAGAUUGCAAAUGCAUCCAGUCAGUAAUAUCACUGUCUGUAUGUGGAGGACAUGUUCCCAUGGAUCAUAUGUGAAGAUGUCAAUAAGCUUGCAUUAAGCCACCUG`: “RBNS enrichment (R)” 0.222.
For `UUAGAGAUACCAGAAUGCUGGUAUUCUACUACUUGUGCAAUAUAUAUGUUUUAAAAAACAAAUUUGAGAAUACAUUUAAUCAUAGGGAUAUAGAUAUAAGCACCUCUCUA`, “RBNS enrichment (R)” read 0.435.
`CUCCGUCUUCCCAGCGGUUCCUGUGCAGAUGCUGCUGAAGAGAGGUGCCGGGGAGGGGCAGAGAGGAAGUGGUCUGUCUGUUACCAUAAGUCUGAUUCUCUUUAACUGUG`: “RBNS enrichment (R)” 0.581.
`AAGCUUCAGUAGCCUGUAGGCGGCUGUACUUGGAACAGACAUUUGGCUGCCAGUAGCAGGCCUGGCAUGGCGUGACGGGAGGGGCCUAAUUACCUAGCUGUUGCUGGACA` — result for “RBNS enrichment (R)”: 0.734.
`UUGUCAGAUCCAUGUAUUUUGGAGCAUAAAAUGUAUGCUGUUGUGACCAAUAAAUAUAAAAUAUGGUAAUUGGAAUUAACUCCACACCAUAGUAUGCAUUGUUAUACAUA`: “RBNS enrichment (R)” 0.66.
Under “RBNS enrichment (R)”, `UCCCAGGCCAGCAGCCCCUGAUCAGUCCUAACUUACCUGAAAACACCAGGCCCCAGAGCAGACUCAUCCGGGGUGGCAGGUCCCUAAAGCAAGGAAGGCCUCACACUGUC` is recorded as 0.238.
For `CCAGUGUCUUCCCUGCUGAGUACCAGGAGAGGUCCUGCCCCAUCCUCUCUCUGAAGCCAGGGCCCUUCCAUUCCAUUUAGCCUUUGGAUCAUCCUGGCUGGGAGAAGUGG`, “RBNS enrichment (R)” read 0.268.
For `GAUUGACUUGGUGCAAUAAAGUUCCUUUCUAACCAUUUCUGGUUUAGAAAACAUUCAGCCAUCCUAGAAACUAGCAAUAUUUAUUUUUGCCUCUUUCGUUUUACCUUCAU`, “RBNS enrichment (R)” read 0.308.
`GGUAUAUGUUACCCACAGUCCAUUUCAGUUAUUCCCACAAGUCAGGUCCAGAUAAAUGAGGGUUAUCAGCUAACUGAUAUGUUAUCAUUGAGGUUCGUCAAUGAAUUUGU` — result for “RBNS enrichment (R)”: 0.417.
`CUCAAAGUGUGGCCAACUCCCAUUUACUUAGAGGCUGAUUAUCUAGUUUUGUAGUUCCUCAGGCCUCUAAUUUAUUUUUUGCUUUCUGCUUUAUUGAUCUUUUGCAUGUC`: “RBNS enrichment (R)” 18.1.
For `UUACACUGUGGUACAUAUAAGCAACUUGACUAGUGACAAAUGUACAGUAGUUAGAUAUCACCUACAUAUACAUUUUUCCAUUUUAUGCUCUAUGAUCUGAAGAACAAAAA`, “RBNS enrichment (R)” read 0.974.
`GGGGGCGGGGUACUCUCCCUGUCGCUAGGUGAGCACUGGCUUUGUCCAACAUCAGGGAACACAAGGCUCUGAAGUGGCCCUGUGUGGAAGGUUGGCAGCUGCCUGGCCUC` — result for “RBNS enrichment (R)”: 0.377.

Series 2 — method: universal PBM; form: double-stranded DNA, one strand shown; medium: in vitro; concentration: not given; direction: higher = stronger binding
Target: Sal-like protein 4, full length isoform B (SALL4, Homo sapiens, UniProt Q9UJQ4-2, residues 1-616)
Setting: 8-mer, flanks averaged, mean of replicates
`GAAACGCA` has an E-score of -0.0826.
`GCGTTTGA` has an E-score of -0.059.
With `GAAGGGCC` the E-score was -0.279.
`GATAATTA` has an E-score of 0.406.
`CCAAAAGC` gave an E-score of -0.162.
`CGGAAGTC` gave an E-score of -0.225.
For `ATTGGCAC`, the E-score was 0.0331.
`AATGGGAT` gave an E-score of 0.044.
The E-score of `AAGTGCAG` is reported as -0.0278.
With `CCGTGTAG` the E-score was -0.041.
With `AGAGTGCA` the E-score was -0.0863.
`AGCGAATA` has an E-score of 0.142.
`ACCGCCAC` has an E-score of -0.082.
With `GAAATACC` the E-score was 0.118.
`AGCGAGGA` has an E-score of -0.0446.
The E-score of `ACCTCGGC` is reported as -0.338.

Series 3 — method: RNA Bind-n-Seq; form: RNA; medium: in vitro; concentration: not given; relative to: input RNA pool; direction: higher = stronger binding
Target: RING finger protein unkempt homolog, zinc fingers 1-6, GST-SBP tag (UNK, Homo sapiens, UniProt Q9C0B0, residues 30-357)
Sequence of UniProt Q9C0B0 (30-357, looked up): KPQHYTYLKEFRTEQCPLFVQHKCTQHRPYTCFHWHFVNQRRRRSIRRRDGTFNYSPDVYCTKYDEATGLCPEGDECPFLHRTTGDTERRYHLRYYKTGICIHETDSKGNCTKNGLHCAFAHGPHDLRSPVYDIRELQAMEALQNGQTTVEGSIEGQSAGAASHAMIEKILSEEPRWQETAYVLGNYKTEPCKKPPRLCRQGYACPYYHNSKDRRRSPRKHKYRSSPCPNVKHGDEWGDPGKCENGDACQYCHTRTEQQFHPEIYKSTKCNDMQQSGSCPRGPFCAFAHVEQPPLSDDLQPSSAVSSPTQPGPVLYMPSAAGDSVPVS
Setting: RNA with constant flanks, human and mouse sites, ends assumed
Shared flanks, not repeated: GGGAGUUCUACAGUCCGACGAUC … CAACAGAGGAUUGAGCAUCA
The bound/input enrichment of `GACAGAACCUUCCAGAAAGAGAUAAGCCUCAAGACCCUGGUGUUCAAAGCUUACAGGUGUUUCUUCAUUGCUCAGUCUUACGUGCUGGUGAAGAAGUGGAGCGAAGCCCUCGUCCUGUAC` is reported as 0.115 ratio.
`UCCUGUGGGUUCUUGGGUGUGUUUGCCACAUCAAGAUUUUAGGGAAGGGGGGUAUAUGUGUAGUAGGGAUGCCGUUUGAAAACAGGCACUCUUCCCCUGAGGAUGGGAAAGGAGCUCUUC` gave a bound/input enrichment of 0.679 ratio.
With `AAUGUUUACUGUAGUGUAUCUGUACAGAUAACAUGUAUUUUUAAAGGAAACACGGAGUUGAAGCUAUUUUUUCCUGCAUUUUGGAUUGACCUGAGGAACAUUCCGUUUGAAACGUGCUCG` the bound/input enrichment was 0.155 ratio.
`UGGCAAAUUUGUAUCAGUAAUUUGAAAAUGAGAUAUUAGGAAAAACCAAUUCUUCUUAAAUUUAGUUCAUCUUUCUUUAAAAGAACAUUAAAUGUAACCAUUUUGUCAGAUCCAUGUAUU` gave a bound/input enrichment of 0.772 ratio.
`UCAACAGACAACAUCAAAUACCAGCCUAAAGGGGGGCAGGUACAAAUUGUUACCAAGAAAAUAGACCUAAGCCAUGUGACAUCCAAAUGUGGCUCUCUGAAGAACAUCCGCCACAGGCCA` has a bound/input enrichment of 0.619 ratio.
For `GAAAAGUACCUUAUUGAUAGUGGAAUUAUAUAUUUUUACUCUAUGUUUCUCUACAUGUUUUUUUCUUUCCGUUGCUGAAAAAUAUUUGAAACUUGUGGUCUCUGAAGCUCGGUGGCACCU`, the bound/input enrichment was 0.403 ratio.
`UGUGGCAGUGCCCCGUGUUUGCUGUGCCGAUGCUGCCCCAGUGGGAACAACUCCACUGUGACUAGAUUGAUCUACGCACUUUUCUUGCUCGUCGGAGUAUGUGUAGCUUGUGUAAUGUUA` gave a bound/input enrichment of 0.289 ratio.
The bound/input enrichment of `AAGGUUCAGACUGCAAAUGAAGUUAAGCAAGCUGUUGAACAGCAGAUCCAGAGCCAUAGAGAAACUCAUCAAAAACAGAUCAGUAGUUUGAGAGAUGAAGUAGAAGCAAAAGCAAAACUU` is reported as 0.357 ratio.
With `GAAUCAACCAAUGAACAAUUACAGAUACAUUAUAAGGUAUGCUAUGCACGUGUUCUUGAUUAUAGAAGAAAAUUCAUUGAAGCUGCACAAAGGUACAAUGAGCUCUCUUACAAGACAAUA` the bound/input enrichment was 0.451 ratio.
The bound/input enrichment of `AAAAAUGCAGUAGAAUGUAAUUCAGUGUUUGUUUAUUGGCUGUUUUUGACAGAUUGCUGAAAUUAAAUGAAUUGAAAGGGAAACUCAGAGUACCAGGGCAUUUUAUUAAAAGGCAAGGAG` is reported as 0.503 ratio.
`AGCAACGGAGAGCCCCACUUCCUACCAGAUGCAAUGUUUGGGCAACCAGGAGCCCUAGGUAGCACUCCAUUUCUUGGUCAGCAUGGUUUUAAUUUCUUUCCCAGUGGGAUUGACUUCUCA` has a bound/input enrichment of 0.389 ratio.

Series 4 — method: protein-binding microarray; form: double-stranded DNA, one strand shown; medium: in vitro; concentration: 250 nM; setting: 60-bp whole probe; added: salmon DNA 0.4 mg/ml; relative to: random background probes; direction: higher = stronger binding; shared flanks, not repeated: GCCTAGCAC … GTCTTGATTCGCTTGACGCTGCTG
Target: Interferon regulatory factor 5, full length, phosphomimetic (IRF5, Homo sapiens, UniProt Q13568-2, residues 1-514, K96S/S451D/S453D/S456D/S462D)
With `GACGGTTTCCTTATCCTGATGTGCTAG` the log fluorescence was 0.95 z-score.
The log fluorescence of `GACGAACAGAGTTTCGAGACGTGCTAG` is reported as 3.4 z-score.
`TTTGATTTCGGGTATCGATTAGTGCTA` gave a log fluorescence of 8.66 z-score.
`AACGAACTGGGGTATCGAGACGTGCTA` gave a log fluorescence of 0.298 z-score.
With `GAGGGTCTCGGTATCGGGACGTGCTAG` the log fluorescence was 0.84 z-score.
For `GACGGCCTGGGGACTGGGGACGTGCTA`, the log fluorescence was -0.798 z-score.
For `TTAGATTCCAGTTTTGATTAGTGCTAG`, the log fluorescence was 1.53 z-score.
`ATCGTAAGCAAAAATGATTGGTGCTAG` has a log fluorescence of 0.502 z-score.
`GACGATATCAGTTGCGAGACGTGCTAG` gave a log fluorescence of 1.57 z-score.
The log fluorescence of `GACGTTATCCTTCTCCTGACGTGCTAG` is reported as 0.134 z-score.
The log fluorescence of `TTAGATCACAGTTTCGATTAGTGCTAG` is reported as 9.22 z-score.
With `TTAAATTTCGGGACTGGATTAGTGCTA` the log fluorescence was 3.8 z-score.
For `TTAGGACTGCTACTGCTTTTGTGCTAG`, the log fluorescence was -0.012 z-score.
The log fluorescence of `AACGGTTTCCTACTGCTGACGTGCTAG` is reported as 0.686 z-score.
For `TCACCTTGCATGTTTTTGACTGTGCTA`, the log fluorescence was 0.679 z-score.
`TTAGGACTTGACACTGGGTTAGTGCTA` gave a log fluorescence of -0.424 z-score.
For `GACGGTCTCGATCTCGGGACGTGCTAG`, the log fluorescence was -0.0831 z-score.
`TCATTTTTACTTTCTGAACTGTGCTAG` has a log fluorescence of 3.51 z-score.
With `TTAGATATCACTATCGATTAGTGCTAG` the log fluorescence was 8.98 z-score.
The log fluorescence of `TTACGTATCGGGTTTCGGTTAGTGCTA` is reported as 9.24 z-score.
`TCACTCCTCTAGGTTCTCACTGTGCTA` has a log fluorescence of 0.221 z-score.
`GTCTCTGTTCTTTTCAGTCCGTGCTAG` gave a log fluorescence of 1.12 z-score.
For `TTAGGTTTCCTTATCATTTAGTGCTAG`, the log fluorescence was 1.53 z-score.
`GACGGTATCGACACGGGGGACGTGCTA` gave a log fluorescence of 2.64 z-score.
For `TCAACTCTTTCTGTCAGACTGTGCTAG`, the log fluorescence was 3.86 z-score.
